Results of several laboratories.
Protocols differ between the studies behind these lines. “And” joins repeats or separate records; there may be more than shown. ± marks the error that the study gave.
UniProt Q8NER1, sequence (whole entry, looked up): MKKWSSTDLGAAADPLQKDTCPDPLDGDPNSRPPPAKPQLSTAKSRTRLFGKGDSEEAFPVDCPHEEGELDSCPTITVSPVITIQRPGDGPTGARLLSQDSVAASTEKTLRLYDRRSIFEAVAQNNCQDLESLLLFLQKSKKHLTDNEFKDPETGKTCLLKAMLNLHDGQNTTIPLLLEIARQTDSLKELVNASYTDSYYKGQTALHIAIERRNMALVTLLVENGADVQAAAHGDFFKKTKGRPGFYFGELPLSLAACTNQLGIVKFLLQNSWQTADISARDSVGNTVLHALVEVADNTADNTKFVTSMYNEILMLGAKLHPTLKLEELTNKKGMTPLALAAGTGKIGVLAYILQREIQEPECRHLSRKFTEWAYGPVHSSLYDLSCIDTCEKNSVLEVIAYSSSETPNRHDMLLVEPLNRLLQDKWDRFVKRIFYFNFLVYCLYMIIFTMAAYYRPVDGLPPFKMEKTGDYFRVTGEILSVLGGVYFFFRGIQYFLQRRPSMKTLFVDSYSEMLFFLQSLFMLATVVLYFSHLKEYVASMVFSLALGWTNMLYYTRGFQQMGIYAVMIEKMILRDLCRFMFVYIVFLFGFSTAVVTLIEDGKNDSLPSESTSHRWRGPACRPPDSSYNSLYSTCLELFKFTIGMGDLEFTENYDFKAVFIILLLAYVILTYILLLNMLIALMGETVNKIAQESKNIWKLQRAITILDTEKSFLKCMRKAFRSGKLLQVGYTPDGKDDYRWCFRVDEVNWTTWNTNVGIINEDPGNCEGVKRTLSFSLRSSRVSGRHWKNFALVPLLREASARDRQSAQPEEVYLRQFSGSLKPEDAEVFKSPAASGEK
UniProt P22736, sequence (whole entry, looked up): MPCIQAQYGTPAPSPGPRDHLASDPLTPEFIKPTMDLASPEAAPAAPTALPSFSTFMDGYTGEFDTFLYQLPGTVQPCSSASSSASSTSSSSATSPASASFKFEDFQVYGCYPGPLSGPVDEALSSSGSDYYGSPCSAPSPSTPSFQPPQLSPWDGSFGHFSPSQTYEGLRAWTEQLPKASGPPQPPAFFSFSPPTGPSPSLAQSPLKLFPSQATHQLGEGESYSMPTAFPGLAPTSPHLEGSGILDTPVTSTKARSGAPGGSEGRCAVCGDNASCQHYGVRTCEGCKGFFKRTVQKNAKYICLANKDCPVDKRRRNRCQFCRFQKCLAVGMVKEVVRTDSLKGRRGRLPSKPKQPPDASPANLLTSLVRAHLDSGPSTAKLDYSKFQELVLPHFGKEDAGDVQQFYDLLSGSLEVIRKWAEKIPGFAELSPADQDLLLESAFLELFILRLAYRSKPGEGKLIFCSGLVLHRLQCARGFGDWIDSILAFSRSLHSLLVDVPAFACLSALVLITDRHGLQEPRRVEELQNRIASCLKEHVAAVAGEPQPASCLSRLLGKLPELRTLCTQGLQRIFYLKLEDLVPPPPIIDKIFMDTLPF
UniProt P41595, sequence (whole entry, looked up): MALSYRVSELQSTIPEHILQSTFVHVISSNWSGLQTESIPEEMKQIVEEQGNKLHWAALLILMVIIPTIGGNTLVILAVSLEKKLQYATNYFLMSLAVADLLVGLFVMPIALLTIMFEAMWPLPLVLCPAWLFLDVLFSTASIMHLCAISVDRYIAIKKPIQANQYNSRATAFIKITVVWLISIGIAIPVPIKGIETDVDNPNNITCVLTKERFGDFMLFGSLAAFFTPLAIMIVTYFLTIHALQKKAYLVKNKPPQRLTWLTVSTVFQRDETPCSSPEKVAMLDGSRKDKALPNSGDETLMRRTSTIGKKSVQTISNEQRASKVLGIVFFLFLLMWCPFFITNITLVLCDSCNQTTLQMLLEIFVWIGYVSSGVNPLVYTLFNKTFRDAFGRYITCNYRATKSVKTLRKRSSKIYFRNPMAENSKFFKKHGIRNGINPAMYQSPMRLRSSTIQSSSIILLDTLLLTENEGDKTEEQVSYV
UniProt P00441, sequence (whole entry, unmodified, looked up): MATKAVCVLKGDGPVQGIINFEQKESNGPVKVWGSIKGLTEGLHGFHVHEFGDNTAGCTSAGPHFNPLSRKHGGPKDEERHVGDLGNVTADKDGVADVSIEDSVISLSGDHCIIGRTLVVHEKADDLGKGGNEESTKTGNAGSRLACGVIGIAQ
UniProt Q05513, sequence (whole entry, looked up): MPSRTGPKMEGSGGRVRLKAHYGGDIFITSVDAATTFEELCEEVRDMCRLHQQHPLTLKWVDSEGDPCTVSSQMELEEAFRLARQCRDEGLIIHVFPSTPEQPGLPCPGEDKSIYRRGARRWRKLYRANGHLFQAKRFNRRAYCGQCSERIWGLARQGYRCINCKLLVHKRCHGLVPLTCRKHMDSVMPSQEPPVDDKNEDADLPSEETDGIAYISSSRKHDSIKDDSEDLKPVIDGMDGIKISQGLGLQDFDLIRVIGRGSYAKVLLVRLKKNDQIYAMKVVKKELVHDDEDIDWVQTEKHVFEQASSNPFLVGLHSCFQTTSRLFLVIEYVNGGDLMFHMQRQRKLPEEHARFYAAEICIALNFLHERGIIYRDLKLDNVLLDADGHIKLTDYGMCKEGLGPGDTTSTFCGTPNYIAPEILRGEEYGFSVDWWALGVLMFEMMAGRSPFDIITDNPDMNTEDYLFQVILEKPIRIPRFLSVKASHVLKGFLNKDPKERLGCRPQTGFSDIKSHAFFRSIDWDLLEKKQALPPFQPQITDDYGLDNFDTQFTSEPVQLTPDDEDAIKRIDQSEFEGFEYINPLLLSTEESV
UniProt Q9UQD0, sequence (whole entry, looked up): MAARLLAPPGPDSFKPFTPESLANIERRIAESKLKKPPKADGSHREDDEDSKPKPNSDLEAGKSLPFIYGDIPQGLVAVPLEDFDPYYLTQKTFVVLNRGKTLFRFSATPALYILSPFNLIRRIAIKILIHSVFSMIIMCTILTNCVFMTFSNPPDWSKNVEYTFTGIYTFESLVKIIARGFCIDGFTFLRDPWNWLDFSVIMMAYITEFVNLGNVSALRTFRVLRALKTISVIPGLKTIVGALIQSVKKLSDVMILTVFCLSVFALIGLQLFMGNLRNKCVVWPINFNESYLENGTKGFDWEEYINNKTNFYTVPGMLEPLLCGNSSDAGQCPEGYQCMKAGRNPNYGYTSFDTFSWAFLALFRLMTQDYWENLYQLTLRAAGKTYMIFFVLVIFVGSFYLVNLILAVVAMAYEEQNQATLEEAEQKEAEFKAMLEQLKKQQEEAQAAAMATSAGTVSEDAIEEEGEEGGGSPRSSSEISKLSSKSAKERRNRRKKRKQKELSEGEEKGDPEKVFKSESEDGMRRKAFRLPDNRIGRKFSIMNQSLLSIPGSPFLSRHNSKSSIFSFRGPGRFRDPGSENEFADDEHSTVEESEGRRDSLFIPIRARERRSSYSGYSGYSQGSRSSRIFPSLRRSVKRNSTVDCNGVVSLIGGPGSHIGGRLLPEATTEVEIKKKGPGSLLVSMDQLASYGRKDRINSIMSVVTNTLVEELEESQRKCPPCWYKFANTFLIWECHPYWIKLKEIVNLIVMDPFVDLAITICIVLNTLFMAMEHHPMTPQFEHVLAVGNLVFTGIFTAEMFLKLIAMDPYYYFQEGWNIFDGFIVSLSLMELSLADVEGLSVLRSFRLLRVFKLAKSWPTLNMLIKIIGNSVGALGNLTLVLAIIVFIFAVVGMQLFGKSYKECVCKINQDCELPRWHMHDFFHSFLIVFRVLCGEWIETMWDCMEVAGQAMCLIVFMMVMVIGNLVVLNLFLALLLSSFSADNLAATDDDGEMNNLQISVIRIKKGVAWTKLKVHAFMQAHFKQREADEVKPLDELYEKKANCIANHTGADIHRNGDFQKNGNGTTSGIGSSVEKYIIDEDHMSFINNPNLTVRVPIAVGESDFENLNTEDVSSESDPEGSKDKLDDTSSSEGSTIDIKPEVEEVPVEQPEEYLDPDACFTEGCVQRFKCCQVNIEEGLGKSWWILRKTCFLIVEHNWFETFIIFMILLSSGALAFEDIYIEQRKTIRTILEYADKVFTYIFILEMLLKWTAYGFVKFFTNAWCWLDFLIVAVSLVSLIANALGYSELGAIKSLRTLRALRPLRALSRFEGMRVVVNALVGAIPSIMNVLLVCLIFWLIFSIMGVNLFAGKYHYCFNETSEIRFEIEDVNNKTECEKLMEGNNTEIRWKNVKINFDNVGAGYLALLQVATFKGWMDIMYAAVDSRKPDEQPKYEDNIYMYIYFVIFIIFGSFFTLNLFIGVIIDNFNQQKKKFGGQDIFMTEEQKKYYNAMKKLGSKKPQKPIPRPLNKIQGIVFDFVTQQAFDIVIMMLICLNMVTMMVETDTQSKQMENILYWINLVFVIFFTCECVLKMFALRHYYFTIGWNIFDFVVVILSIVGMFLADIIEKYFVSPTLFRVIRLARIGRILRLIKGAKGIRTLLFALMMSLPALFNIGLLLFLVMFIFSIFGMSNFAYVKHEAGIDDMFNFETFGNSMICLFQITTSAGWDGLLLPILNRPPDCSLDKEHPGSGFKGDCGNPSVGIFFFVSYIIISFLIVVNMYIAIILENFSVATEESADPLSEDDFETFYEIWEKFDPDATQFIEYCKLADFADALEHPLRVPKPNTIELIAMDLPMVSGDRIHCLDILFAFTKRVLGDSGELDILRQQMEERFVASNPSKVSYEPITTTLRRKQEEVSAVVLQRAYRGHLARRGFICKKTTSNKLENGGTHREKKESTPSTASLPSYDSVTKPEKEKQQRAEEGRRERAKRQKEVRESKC
UniProt P40337, sequence (whole entry, unmodified, looked up): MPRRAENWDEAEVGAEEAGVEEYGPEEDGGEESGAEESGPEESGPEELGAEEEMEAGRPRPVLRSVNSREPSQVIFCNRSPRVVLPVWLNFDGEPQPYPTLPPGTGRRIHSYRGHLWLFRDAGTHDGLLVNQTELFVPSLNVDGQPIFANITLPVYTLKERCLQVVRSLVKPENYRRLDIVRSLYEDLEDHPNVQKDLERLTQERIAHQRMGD

Compound | tested on | assay | test system | conditions | scale | quantity | result
[O-][S+]1CCCCS1 (stereo not shown) | SOD1 (Homo sapiens, UniProt P00441, G94A) | LC-MS | human whole blood | 1000 µM, 1 h, 37 °C |  | SOD1 monomer fraction | 22.7%
O=[N+]([O-])c1cc(C(F)(F)F)ccc1NCc1ccco1 | Endothelial PAS domain-containing protein 1, PAS-B domain (EPAS1, Homo sapiens, UniProt Q99814, N288Q) | ZZ-exchange NMR |  | 25 °C |  | koff | 2.36 ± 0.17 s⁻¹
Oc1ccc(/C=C/c2cc(O)cc(O)c2)cc1 | O-methyltransferase (Sorghum bicolor, UniProt A0A1B6PFV1) |  |  | concentration not given, with: ADE+ |  | ΔH of binding | -12.1 ± 0.171 kcal/mol
Cn1cc(-c2ccc(-c3cncc(Cl)c3N3CCC4(CCNC4=O)CC3)cc2)cn1 | COLO 205 | gene expression, microarray, measured: ELF3 mRNA |  | concentration not given, 2 h | reference: untreated cells | log2 fold change | 2.04
COc1cc(CNC(=O)CCCC/C=C/C(C)C)ccc1O | TRPV1 (Homo sapiens, UniProt Q8NER1) | channel activation, FLIPR calcium | HEK293T | 0.741 µM | higher = more activation | calcium response | 21.6 a.u. and 21.1 a.u. and 22.2 a.u. and 17 a.u.
O=c1cc(-c2ccc([N+](=O)[O-])cc2)[nH]c2c(-c3ccc(Cl)cc3)c(Cc3ccccc3)nn12 | Sodium channel protein type 8 subunit alpha, C-terminal domain (SCN8A, Homo sapiens, UniProt Q9UQD0) | binder, SPR |  |  |  | koff | 0.00864 ± 3.7e-05 s⁻¹
Cc1cccc(N2CC(C(=O)O)CC2=O)c1 (stereo not shown) | FBXW7 (Homo sapiens, UniProt Q969H0) | binding, affinity selection mass spectrometry |  |  | reference: other proteins in batch | log fold enrichment | -0.0174
Cc1ccc(C(=O)Nc2ccc3c(c2)C(=O)N(C2CCC(=O)NC2=O)C3=O)cc1 (stereo not shown) | Cereblon/Casein kinase I alpha (CSNK1A1/CRBN, Homo sapiens, UniProt P48729+Q96SW2) | degrader, live-cell HiBiT kinetic | HEK293 LgBiT | 10 µM |  | degradation rate constant | 0.61 h⁻¹
Cc1ccnc(OC[C@H]2CN(CC(=O)N3CCc4ccccc43)CCO2)c1 | HTR2B (Homo sapiens, UniProt P41595) | radioligand binding |  | concentration not given, with: [3H]LSD |  | inhibition | 36.1%
CCC(=O)NS(=O)(=O)c1ccc(-c2c(-c3ccccc3)noc2C)cc1 | Nuclear receptor subfamily 4 group A member 1 (NR4A1, Homo sapiens, UniProt P22736) | reporter gene, Gal4 hybrid reporter |  | 50 µM | reference: vehicle | activation | 0.33 fold
CC(=O)N[C@H](C(=O)N1C[C@H](O)C[C@H]1C(=O)NCc1ccc(-c2scnc2C)cc1)C(C)(C)SCCCCCCNC(=O)C[C@@H]1N=C(c2ccc(Cl)cc2)c2c(sc(C)c2C)-n2c(C)nnc21 | VHL/BRD3, BD1; with Elongin B/C (Homo sapiens, UniProt P40337+Q15059) | ternary complex binding, ITC |  | 25 °C, with: VHL-ElonginB-ElonginC titrated into compound:PROTAC:Brd3^BD1 complex |  | ΔH | -4.38 ± 0.03 kcal/mol
C=CC(=O)N1CCC(C(=O)NCC(=O)N2CCN(c3nc(-c4cnc(N)nc4C(F)F)nc(N4CCOCC4)n3)CC2)CC1 | Non-receptor tyrosine-protein kinase TYK2, JH1 domain (TYK2, Homo sapiens, UniProt P29597) | KINOMEscan |  | 1 µM |  | remaining binding | 92%
COc1cc(-c2cncc3c2CN(C)Cc2cc(N4CCNCC4)ccc2-3)cc(OC)c1OC | PRKCZ (Homo sapiens, UniProt Q05513) | kinase activity |  | 1 µM, human enzyme, with: ATP 10 µM | reference: DMSO control | remaining activity | 108%

Some of these lines once more:
Compound | tested on | assay | test system | conditions | scale | quantity | result
Cn1cc(-c2ccc(-c3cncc(Cl)c3N3CCC4(CCNC4=O)CC3)cc2)cn1 | COLO 205 | gene expression, microarray, measured: ELF3 mRNA |  | concentration not given, 2 h | reference: untreated cells | log2 fold change | 2.04
